Experimental data of several laboratories.
A part holds a random share of what one study measured. “And” joins repeats or separate records; there may be more than shown.
UniProt Q9UF33, sequence (whole entry, looked up): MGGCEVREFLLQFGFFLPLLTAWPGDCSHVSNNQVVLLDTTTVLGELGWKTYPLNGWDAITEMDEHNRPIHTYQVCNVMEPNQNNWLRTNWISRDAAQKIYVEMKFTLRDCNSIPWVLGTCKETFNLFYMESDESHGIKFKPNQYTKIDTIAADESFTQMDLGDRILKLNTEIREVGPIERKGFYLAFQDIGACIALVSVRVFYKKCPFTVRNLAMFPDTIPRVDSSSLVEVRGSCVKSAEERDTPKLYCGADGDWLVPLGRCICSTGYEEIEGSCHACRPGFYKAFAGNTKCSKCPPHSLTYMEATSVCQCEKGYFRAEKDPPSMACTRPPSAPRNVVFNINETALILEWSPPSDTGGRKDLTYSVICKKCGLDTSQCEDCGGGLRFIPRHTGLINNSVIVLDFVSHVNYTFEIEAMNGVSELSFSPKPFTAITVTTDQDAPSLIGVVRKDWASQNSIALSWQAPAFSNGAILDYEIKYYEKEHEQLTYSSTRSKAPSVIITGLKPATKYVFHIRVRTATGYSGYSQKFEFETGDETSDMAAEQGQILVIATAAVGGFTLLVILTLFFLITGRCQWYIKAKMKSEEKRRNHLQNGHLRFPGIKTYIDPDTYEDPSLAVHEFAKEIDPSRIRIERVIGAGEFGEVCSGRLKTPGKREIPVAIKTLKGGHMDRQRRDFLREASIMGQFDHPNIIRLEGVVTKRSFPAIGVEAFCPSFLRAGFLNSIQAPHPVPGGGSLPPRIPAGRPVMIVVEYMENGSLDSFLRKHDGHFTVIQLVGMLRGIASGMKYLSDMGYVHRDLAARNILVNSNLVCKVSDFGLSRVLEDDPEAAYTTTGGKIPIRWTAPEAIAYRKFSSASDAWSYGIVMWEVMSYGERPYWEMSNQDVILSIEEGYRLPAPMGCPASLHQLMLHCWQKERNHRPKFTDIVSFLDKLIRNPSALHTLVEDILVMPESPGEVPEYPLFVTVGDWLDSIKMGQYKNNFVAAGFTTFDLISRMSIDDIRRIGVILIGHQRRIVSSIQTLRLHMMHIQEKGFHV
UniProt O60674, sequence (whole entry, looked up): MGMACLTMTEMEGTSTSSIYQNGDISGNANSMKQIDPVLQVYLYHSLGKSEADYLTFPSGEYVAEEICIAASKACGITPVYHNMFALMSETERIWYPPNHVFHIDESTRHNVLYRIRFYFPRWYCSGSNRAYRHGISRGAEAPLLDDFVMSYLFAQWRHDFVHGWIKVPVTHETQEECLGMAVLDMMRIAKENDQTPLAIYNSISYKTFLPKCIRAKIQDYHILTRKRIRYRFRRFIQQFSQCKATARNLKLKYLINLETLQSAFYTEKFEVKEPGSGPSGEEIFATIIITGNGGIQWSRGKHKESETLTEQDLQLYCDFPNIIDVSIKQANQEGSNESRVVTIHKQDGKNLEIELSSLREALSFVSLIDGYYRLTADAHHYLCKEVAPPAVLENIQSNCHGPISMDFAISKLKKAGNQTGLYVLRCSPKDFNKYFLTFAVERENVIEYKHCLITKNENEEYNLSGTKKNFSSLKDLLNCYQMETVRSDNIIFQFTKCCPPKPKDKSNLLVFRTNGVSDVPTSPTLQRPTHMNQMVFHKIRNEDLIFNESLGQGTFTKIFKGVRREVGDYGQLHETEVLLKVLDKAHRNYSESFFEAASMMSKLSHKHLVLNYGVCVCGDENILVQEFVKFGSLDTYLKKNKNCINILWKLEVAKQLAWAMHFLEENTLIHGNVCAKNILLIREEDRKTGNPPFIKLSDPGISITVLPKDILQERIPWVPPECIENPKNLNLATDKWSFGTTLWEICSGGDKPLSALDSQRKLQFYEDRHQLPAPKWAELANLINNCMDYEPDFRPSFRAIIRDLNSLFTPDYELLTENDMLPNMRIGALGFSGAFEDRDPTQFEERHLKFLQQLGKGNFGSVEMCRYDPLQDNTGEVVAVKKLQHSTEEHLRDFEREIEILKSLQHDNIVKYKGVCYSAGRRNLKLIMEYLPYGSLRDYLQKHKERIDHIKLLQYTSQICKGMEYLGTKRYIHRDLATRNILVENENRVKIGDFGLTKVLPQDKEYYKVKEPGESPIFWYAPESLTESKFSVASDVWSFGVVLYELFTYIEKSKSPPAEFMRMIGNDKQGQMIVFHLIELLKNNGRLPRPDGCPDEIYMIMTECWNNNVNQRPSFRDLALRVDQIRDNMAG
UniProt Q9NQU5, sequence (whole entry, looked up): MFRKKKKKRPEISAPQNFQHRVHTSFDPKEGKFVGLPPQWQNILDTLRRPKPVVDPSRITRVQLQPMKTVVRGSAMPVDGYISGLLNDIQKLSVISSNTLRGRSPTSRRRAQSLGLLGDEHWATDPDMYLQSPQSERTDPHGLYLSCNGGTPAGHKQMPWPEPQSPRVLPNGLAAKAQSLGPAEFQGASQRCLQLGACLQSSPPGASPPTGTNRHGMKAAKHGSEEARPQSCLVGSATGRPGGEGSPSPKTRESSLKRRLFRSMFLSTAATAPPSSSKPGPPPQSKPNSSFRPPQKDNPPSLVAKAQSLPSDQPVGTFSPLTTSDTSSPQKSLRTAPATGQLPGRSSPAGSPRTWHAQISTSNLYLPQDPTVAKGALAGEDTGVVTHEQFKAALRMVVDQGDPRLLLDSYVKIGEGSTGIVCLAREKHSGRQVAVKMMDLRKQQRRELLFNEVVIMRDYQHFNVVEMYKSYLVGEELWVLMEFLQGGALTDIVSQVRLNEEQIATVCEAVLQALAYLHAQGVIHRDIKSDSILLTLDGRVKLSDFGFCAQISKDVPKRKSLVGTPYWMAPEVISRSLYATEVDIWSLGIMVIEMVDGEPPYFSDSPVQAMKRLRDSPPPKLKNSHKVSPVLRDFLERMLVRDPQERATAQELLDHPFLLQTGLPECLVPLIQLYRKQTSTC
UniProt Q15139, sequence (whole entry, looked up): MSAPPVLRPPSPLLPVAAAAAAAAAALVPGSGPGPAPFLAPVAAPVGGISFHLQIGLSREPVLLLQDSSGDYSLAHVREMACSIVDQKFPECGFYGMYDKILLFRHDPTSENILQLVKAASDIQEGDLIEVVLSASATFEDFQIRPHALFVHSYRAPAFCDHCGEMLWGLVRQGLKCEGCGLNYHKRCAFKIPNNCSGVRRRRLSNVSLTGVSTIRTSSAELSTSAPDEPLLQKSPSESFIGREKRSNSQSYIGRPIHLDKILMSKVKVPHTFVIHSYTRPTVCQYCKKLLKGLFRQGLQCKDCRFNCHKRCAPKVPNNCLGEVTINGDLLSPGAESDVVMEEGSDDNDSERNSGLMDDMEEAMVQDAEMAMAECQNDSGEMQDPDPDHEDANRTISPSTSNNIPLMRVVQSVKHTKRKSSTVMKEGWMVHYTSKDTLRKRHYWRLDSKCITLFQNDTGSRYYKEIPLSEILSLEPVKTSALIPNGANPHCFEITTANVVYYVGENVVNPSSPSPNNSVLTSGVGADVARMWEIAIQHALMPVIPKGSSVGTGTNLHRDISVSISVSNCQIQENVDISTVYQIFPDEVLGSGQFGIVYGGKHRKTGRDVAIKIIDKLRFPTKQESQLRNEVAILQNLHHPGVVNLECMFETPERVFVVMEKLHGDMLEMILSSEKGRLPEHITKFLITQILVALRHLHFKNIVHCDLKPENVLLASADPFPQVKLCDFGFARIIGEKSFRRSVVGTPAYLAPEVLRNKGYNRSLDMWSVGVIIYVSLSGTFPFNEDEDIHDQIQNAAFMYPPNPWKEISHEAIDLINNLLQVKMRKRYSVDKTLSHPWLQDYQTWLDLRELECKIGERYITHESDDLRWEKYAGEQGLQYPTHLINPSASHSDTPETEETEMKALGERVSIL

Block 1
Organism: Sarcocystis neurona
Observed: parasite growth
Concentration: 10 µM
Setting: secondary screen
Endpoint: inhibition
Compound = C[C@@H]1C[C@H]2[C@@H]3C[C@H](F)C4=CC(=O)C(Cl)=C[C@]4(C)[C@@]3(F)[C@@H](O)C[C@]2(C)[C@@]1(O)C(=O)CO; value = -7.7%
Compound = CN(C/C=C/C#CC(C)(C)C)Cc1cccc2ccccc12; value = -56.7%
Compound = CO[C@H]1O[C@@H]2O[C@@]3(C)CC[C@H]4[C@H](C)CC[C@@H]([C@H]1C)[C@@]24OO3; value = 54.8%
Compound = Nc1ncnc2c1ncn2[C@@H]1O[C@H](CO)C[C@H]1O; value = -22.3%
Compound = CCC(C)n1ncn(-c2ccc(N3CCN(c4ccc(OCC5COC(Cn6cncn6)(c6ccc(Cl)cc6Cl)O5)cc4)CC3)cc2)c1=O (stereo not drawn); value = -58.1%
Compound = CC(C)OC(=O)CCC/C=C\C[C@@H]1[C@@H](CC[C@@H](O)CCc2ccccc2)[C@H](O)C[C@@H]1O; value = -28.7%
Compound = CCCCCCNC(=O)n1cc(F)c(=O)[nH]c1=O; value = 64.7%
Compound = COc1cc(-c2ccc(=O)[nH]n2)ccc1OC(F)F; value = -45.9%

Block 2
SMILES: c1ccc(Oc2ccc(Nc3c4c(nc5ccccc35)CCC4)cc2)cc1
Organism: Leishmania donovani
Observed: parasite killing
Strain: DD8
Endpoint: inhibition
system = promastigotes; conditions = 6.66 µM, 48 h; value = 99%
system = intracellular amastigotes; conditions = 80 µM, 48 h; value = 100%
system = promastigotes; conditions = 0.33 µM, 72 h; value = 19% and 20% and 24%
system = intracellular amastigotes; conditions = 80 µM, 72 h; value = 100%
system = intracellular amastigotes; conditions = 4 µM, 72 h; value = 97% and 98%
system = promastigotes; conditions = 6.66 µM, 24 h; value = 85% and 84% and 86%
system = intracellular amastigotes; conditions = 0.04 µM, 24 h; value = 13% and 9%

Block 3
Target: Tyrosine-protein kinase BTK (BTK, Homo sapiens, UniProt Q06187)
UniProt Q06187, sequence (whole entry, looked up): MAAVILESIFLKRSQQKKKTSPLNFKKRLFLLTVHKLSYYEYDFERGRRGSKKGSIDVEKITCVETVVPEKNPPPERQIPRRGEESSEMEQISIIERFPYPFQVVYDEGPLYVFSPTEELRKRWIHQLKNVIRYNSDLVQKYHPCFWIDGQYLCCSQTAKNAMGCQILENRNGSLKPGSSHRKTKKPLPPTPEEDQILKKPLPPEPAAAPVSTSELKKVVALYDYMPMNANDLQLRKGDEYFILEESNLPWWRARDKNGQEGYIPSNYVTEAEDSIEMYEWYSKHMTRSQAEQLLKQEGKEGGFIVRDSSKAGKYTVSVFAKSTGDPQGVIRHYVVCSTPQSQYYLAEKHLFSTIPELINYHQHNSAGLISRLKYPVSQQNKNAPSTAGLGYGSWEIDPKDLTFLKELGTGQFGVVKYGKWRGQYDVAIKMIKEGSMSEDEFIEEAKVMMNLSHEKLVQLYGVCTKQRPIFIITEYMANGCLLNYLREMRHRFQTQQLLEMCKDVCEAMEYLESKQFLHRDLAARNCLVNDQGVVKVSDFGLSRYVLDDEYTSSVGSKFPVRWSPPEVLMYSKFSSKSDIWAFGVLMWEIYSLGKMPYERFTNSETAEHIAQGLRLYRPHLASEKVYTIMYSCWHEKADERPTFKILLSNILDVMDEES
Observed: enzyme activity
Action: inhibitor
Concentration: 0.5 µM
Reference: control
Endpoint: remaining activity
SMILES = OCC(O)CCON=C1C(c2c(O)[nH]c3ccccc23)=Nc2ccccc21 (stereo not drawn); value = 24.1%
SMILES = Nc1ncnc2n[nH]c(Nc3ccc(F)cc3)c12; value = 82.3%
SMILES = Cc1cccc(-c2[nH]c(C(C)(C)C)nc2-c2ccc3c(c2)OCO3)n1; value = 118%
SMILES = O=c1c2ccccc2[nH]c(=S)n1CCN1CCC(=C(c2ccc(F)cc2)c2ccc(F)cc2)CC1; value = 105%
SMILES = Cc1nc(-c2ccccc2)c(-c2ccncc2)o1; value = 98.3%
SMILES = COc1ccc(OC)c2c(=S)c3ccccc3[nH]c12; value = 102%
SMILES = COc1cc2ncnc(Nc3ccc(F)c(Cl)c3)c2cc1OCCCN1CCOCC1; value = 60.6%
SMILES = O=C(O)c1ccc2c3c1cccc3c(=O)n1c3ccccc3nc21; value = 109%
SMILES = CC(C)[C@H](CO)Nc1nc(Nc2cc(N)cc(Cl)c2)c2ncn(C(C)C)c2n1; value = 33%
SMILES = O=C1NC(=O)C(c2cn(CCCO)c3ncccc23)=C1c1cnccn1; value = 93.7%
SMILES = CCOC(=O)c1c(C)[nH]c(/C=C2\C(=O)Nc3ccccc32)c1C; value = 95.6%
SMILES = O=C(CCCc1ccc(-c2ccccc2F)cc1)Nc1ccc(O)cc1; value = 98.2%
SMILES = Oc1ccc(-c2nc(-c3ccncc3)c(-c3ccc(F)cc3)[nH]2)cc1; value = 101%
SMILES = O=C(Nc1cccc(Nc2cc(Nc3cccc(C(F)(F)F)c3)ncn2)c1)C1CC1; value = 101%
SMILES = C#Cc1cccc(Nc2ncnc3cc(OCCOC)c(OCCOC)cc23)c1; value = 86.2%
SMILES = Nc1ccc2ncnc(NCCc3ccc(Oc4ccccc4)cc3)c2c1; value = 96.8%

Block 4
Structure (SMILES): O=C(Nc1cccnn1)N1CC(C/C=C/c2cncc(Oc3ccc(C(F)(F)F)cn3)n2)C1
Observed: cell-free assay
Method: competition with immobilised ligand
Concentration: 1 µM
Endpoint: remaining binding
target = Tyrosine-protein kinase ABL1, phosphorylated (ABL1, Homo sapiens, UniProt P00519, T315I); value = 80%
target = Tyrosine-protein kinase JAK2, JH1 (JAK2, Homo sapiens, UniProt O60674); value = 88%
target = PAK6 (Homo sapiens, UniProt Q9NQU5); value = 100%
target = PRKD1 (Homo sapiens, UniProt Q15139); value = 100%
target = FGFR3 (Homo sapiens, UniProt P22607, G697C); value = 100%
target = MAP3K9 (Homo sapiens, UniProt P80192); value = 100%
target = EPHA6 (Homo sapiens, UniProt Q9UF33); value = 100%

Mixed results
Compound = CN(N=O)C(=O)N[C@@H]1[C@@H](O)[C@H](O)[C@@H](CO)O[C@@H]1O; system = mice, STZ diabetic neuropathy; conditions = dose not given, 7 days after STZ; endpoint = blood glucose; value = 528 mg/dL and 378 mg/dL and 469 mg/dL and 399 mg/dL and 547 mg/dL
